Experimental data of several laboratories.
Each line is one published result; not all experiments were run side by side. Values joined by “and” are separate records of one study, mostly repeats; a detail may differ. Numbers after ± are the reported error.
Chain of UniProt Q8BVQ5 (whole entry, looked up): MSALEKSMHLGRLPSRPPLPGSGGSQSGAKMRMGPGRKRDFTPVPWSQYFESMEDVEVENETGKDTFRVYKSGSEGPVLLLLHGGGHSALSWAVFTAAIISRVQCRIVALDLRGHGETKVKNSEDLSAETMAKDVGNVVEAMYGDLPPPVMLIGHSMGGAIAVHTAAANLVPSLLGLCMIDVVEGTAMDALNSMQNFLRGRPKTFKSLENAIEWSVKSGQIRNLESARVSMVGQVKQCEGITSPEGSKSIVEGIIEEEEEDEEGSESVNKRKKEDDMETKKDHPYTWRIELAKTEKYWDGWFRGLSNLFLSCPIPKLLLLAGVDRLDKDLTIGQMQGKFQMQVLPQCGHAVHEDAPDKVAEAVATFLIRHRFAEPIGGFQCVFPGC
Chain of UniProt Q9UM07 (whole entry, looked up): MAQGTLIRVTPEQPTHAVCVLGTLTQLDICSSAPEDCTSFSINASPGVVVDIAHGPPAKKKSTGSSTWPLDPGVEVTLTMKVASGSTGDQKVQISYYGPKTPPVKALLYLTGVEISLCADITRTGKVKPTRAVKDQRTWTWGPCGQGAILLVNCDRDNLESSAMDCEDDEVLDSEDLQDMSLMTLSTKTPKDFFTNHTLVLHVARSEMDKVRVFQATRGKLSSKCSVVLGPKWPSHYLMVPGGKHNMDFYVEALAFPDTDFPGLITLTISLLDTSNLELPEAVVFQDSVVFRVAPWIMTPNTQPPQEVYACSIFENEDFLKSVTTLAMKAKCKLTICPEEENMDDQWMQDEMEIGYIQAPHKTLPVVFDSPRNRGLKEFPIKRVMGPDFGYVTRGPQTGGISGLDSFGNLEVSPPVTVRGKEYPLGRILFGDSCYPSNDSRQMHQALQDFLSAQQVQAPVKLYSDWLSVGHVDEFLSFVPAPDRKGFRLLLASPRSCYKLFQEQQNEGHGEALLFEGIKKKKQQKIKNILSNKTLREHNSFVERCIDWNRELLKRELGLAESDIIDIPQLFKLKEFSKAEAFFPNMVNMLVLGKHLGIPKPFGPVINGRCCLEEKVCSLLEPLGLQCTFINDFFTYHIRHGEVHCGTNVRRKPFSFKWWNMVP
Chain of UniProt P21554 (whole entry, unmodified, looked up): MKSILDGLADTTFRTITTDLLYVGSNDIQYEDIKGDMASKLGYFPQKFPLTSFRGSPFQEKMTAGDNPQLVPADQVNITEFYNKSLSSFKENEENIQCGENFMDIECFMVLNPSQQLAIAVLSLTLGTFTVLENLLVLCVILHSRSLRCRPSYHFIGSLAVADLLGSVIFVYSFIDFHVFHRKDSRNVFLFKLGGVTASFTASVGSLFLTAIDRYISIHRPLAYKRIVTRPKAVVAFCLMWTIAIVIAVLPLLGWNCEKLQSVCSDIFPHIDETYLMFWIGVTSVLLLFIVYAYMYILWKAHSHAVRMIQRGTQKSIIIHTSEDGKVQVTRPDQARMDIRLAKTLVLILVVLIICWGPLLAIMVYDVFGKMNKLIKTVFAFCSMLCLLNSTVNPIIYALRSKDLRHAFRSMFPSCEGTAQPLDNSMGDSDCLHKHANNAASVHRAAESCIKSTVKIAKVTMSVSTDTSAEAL
Chain of UniProt Q86UX6 (whole entry, looked up): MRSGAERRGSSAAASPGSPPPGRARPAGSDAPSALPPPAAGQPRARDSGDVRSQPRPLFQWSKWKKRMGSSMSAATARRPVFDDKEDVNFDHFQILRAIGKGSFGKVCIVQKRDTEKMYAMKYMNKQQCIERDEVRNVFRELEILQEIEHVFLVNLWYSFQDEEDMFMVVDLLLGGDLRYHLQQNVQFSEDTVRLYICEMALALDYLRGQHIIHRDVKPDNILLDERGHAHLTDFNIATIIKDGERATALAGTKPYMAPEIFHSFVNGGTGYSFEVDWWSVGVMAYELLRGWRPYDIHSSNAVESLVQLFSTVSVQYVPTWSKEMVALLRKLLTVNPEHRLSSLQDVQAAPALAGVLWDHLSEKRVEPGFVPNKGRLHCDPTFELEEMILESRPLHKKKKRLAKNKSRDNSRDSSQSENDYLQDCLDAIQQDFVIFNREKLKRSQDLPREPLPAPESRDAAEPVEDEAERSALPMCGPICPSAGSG
Chain of UniProt P48426 (whole entry, looked up): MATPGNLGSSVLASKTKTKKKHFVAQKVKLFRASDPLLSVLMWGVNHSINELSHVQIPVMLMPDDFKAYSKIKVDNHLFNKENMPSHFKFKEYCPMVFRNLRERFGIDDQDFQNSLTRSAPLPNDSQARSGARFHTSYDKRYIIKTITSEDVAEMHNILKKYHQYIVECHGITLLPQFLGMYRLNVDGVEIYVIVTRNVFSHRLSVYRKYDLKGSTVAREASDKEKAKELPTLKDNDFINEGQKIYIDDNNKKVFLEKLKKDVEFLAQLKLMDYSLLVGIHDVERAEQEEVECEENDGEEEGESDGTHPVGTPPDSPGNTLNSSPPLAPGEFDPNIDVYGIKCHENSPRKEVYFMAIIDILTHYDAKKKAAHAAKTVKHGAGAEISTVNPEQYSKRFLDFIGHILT
Chain of UniProt P54760 (whole entry, looked up): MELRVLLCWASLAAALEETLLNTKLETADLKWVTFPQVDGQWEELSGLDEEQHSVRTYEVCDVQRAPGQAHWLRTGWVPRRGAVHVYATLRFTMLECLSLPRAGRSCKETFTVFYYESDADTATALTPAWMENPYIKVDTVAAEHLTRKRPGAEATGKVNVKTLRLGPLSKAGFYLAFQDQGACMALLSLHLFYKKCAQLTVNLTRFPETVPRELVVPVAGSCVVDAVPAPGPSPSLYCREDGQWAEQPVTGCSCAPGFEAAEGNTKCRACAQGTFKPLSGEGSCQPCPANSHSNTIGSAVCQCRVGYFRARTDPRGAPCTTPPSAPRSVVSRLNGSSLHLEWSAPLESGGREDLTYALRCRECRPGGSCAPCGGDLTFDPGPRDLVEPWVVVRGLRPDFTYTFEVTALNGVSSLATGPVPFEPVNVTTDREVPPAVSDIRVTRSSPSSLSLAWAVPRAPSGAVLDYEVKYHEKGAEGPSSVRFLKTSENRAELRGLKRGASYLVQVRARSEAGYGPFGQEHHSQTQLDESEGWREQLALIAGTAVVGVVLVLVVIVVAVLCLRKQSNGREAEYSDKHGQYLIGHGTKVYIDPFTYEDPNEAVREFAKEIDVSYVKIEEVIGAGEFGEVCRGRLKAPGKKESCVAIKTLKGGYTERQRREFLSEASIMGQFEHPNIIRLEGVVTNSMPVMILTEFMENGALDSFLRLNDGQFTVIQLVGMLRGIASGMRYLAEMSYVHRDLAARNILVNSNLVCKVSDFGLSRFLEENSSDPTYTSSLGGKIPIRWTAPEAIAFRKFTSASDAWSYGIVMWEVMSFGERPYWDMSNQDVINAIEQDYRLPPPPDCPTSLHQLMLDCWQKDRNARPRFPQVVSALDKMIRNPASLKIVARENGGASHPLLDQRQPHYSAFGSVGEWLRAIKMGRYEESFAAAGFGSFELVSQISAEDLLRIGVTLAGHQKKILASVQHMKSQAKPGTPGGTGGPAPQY
Chain of UniProt Q07912 (whole entry, looked up): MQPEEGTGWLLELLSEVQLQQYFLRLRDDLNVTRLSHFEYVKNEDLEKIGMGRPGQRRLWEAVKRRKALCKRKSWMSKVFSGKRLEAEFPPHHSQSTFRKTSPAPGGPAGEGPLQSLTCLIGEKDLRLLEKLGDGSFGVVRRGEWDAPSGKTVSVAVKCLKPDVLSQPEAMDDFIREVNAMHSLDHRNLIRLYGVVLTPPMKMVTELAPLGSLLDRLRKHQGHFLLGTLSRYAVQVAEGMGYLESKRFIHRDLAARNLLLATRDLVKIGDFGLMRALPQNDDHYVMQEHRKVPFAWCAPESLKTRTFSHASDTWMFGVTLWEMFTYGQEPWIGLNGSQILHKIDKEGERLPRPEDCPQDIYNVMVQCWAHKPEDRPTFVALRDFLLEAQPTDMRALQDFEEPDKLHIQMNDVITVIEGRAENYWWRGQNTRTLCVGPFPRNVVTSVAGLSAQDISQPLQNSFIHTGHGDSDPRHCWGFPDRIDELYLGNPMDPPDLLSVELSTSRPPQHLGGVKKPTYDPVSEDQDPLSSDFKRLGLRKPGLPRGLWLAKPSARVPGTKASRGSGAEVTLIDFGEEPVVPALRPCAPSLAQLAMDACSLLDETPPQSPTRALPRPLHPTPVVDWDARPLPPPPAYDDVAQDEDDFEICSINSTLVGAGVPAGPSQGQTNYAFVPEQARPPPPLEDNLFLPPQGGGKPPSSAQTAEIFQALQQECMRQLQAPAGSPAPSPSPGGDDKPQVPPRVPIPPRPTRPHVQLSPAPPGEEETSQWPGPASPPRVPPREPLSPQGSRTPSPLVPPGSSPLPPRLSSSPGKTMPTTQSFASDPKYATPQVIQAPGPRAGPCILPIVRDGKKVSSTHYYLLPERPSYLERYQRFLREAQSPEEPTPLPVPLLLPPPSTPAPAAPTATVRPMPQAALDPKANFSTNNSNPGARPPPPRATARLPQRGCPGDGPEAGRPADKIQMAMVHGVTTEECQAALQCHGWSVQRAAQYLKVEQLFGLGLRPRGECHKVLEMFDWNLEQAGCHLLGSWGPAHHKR
Chain of UniProt Q9Y2H1 (whole entry, looked up): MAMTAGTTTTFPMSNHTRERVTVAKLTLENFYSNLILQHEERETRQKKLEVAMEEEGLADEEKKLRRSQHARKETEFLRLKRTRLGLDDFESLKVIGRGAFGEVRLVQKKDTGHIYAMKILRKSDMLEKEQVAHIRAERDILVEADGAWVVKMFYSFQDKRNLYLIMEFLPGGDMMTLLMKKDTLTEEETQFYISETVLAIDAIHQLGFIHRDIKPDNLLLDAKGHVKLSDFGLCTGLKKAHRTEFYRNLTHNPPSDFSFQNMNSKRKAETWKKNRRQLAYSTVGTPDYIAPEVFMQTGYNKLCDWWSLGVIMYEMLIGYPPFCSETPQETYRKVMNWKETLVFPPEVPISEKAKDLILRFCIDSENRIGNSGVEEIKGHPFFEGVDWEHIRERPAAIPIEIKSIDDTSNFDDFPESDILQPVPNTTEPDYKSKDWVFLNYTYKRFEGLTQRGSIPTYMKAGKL

SMILES = CS(C)(=O)=Nc1ccc(-c2ccc(-c3nc4cc(O[C@@H]5CO[C@H]6[C@@H]5OC[C@H]6O)[nH]c4cc3F)cc2)cc1; tested on = PIP4K2A (Homo sapiens, UniProt P48426); test = enzyme activity, inhibitor; setting = 10 µM; measurement = inhibition; result = -3%
SMILES = CC(C)[C@H]1NC(=O)C[C@H]2/C=C/CCSSC[C@@H](NC1=O)C(=O)N[C@H](Cc1cccc3ccccc13)C(=O)NCC(=O)O2; tested on = STK38L (Homo sapiens, UniProt Q9Y2H1); test = enzyme activity, inhibitor; setting = 10 µM; measurement = inhibition; result = -3.5%
SMILES = O=C1NC(=O)c2c1c1cc(F)c[n+]3c1c1c2c2cc(O)ccc2[n]1[Ru-4]312([N]=C=S)[S+]3CC[S+]1CC[S+]2CC3 (centres unmarked); tested on = TNK2 (Homo sapiens, UniProt Q07912); test = enzyme activity; setting = 100 nM, human enzyme, with: 10 µM ATP; scale = baseline: untreated; measurement = remaining activity; result = 53%
SMILES = Cc1sc2c(c1C)C(c1ccc(Cl)cc1)=N[C@@H](CC(=O)OC(C)(C)C)c1nnc(C)n1-2; tested on = Bromodomain-containing protein 3, BD1 (BRD3, Homo sapiens, UniProt Q15059); test = isothermal titration calorimetry; setting = 15 °C, reverse titration; measurement = ΔG; result = -6.57 kcal/mol
SMILES = CC(C)CC(O)(CC(C)C)c1cn(C(=O)N2CCCC2)nn1; tested on = Protein phosphatase methylesterase 1 (Mus musculus, UniProt Q8BVQ5); test = probe labelling, inhibitor, competitive ABPP-SILAC, measured: Ppme1; test system = mouse T cells; setting = concentration not given, 4 h, single peptide; scale = baseline: treated over DMSO cells, lower = stronger inhibition; measurement = SILAC activity ratio; result = 1.22 and 1.25 and 1 and 1.13 and 1.08
SMILES = N[C@H](C(=O)N1CCCC1)C1CCN(c2nccc3c(-c4ncc(Cl)cc4Cl)cccc23)CC1; tested on = PADI4 (Homo sapiens, UniProt Q9UM07); test = enzyme activity; setting = 0.01573 µM, low-affinity site, with: Ca2+ 0.25 mM; measurement = kcat; result = 0.668 s⁻¹ and 0.72 s⁻¹
SMILES = CN(C)[C@H]1C[C@@]23CC[C@@]4(O2)C(=CC[C@]2(C)[C@@H](c5ccc6ccncc6c5)CC[C@H]24)C=C3[C@@H](O)[C@@H]1O; tested on = EPHB4 (Homo sapiens, UniProt P54760); test = ATP probe labelling, inhibitor, KiNativ profiling; setting = 1 µM; measurement = inhibition; result = -3.4%
SMILES = Cc1ccc2c(C(C[N+](=O)[O-])c3cccs3)c(-c3ccccc3)[nH]c2c1 (centres unmarked); tested on = CNR1 (Homo sapiens, UniProt P21554, V249A); test = Gαi1-γ2 dissociation, BRET; measurement = Emax; result = 86.8 ± 2.41%
SMILES = O=C1NC2(CC2)COc2ncc(F)cc2[C@H]2COCCN2c2ccn3ncc1c3n2; test system = Sprague-Dawley rat, male, epididymides; setting = oral, 20 mg/kg/day, end of recovery, 4-week repeated-dose toxicity; measurement = epididymis weight; result = 1.37 ± 0.085 g
SMILES = Nc1ccc(/C=C/C(=O)N2CCc3c(oc4c(-c5ccc(F)cc5)cc(-c5ccc(C(=O)N6CCC(F)(F)CC6)cn5)cc34)C2)cn1; tested on = STK32C (Homo sapiens, UniProt Q86UX6); test = binding, competition with immobilised ligand; setting = 1 µM; measurement = remaining binding; result = 97%
SMILES = CC(C)C[C@H](NC(=O)[C@H](CC(C)C)NC(=O)[C@H](CCCCN)NC(=O)[C@H](Cc1ccccc1)NC(=O)[C@@H](NC(=O)[C@H](CCCNC(=N)N)NC(=O)[C@@H](N)CCCCN)C(C)C)C(=O)N[C@@H](CCCCN)C(=O)N[C@@H](CCCNC(=N)N)C(=O)N[C@@H](Cc1ccc(O)cc1)C(=O)N[C@@H](Cc1c[nH]c2ccccc12)C(=O)N[C@@H](CCCNC(=N)N)C(=O)N[C@@H](CCC(N)=O)C(=O)N[C@@H](CC(C)C)C(=O)N[C@@H](CCCCN)C(=O)N[C@@H](CCCCN)C(=O)N1CCC[C@H]1C(=O)N[C@H](C(=O)N[C@@H](CCCNC(=N)N)C(=O)NCCOCCOCC(=O)O)C(C)C; tested on = Pseudomonas aeruginosa; test system = ATCC 10145-GFP; setting = sub-MIC, 24 h; scale = baseline: untreated; measurement = elastase activity; result = decreased

Repeated from above:
SMILES = N[C@H](C(=O)N1CCCC1)C1CCN(c2nccc3c(-c4ncc(Cl)cc4Cl)cccc23)CC1; tested on = PADI4 (Homo sapiens, UniProt Q9UM07); test = enzyme activity; setting = 0.01573 µM, low-affinity site, with: Ca2+ 0.25 mM; measurement = kcat; result = 0.668 s⁻¹ and 0.72 s⁻¹
SMILES = CC(C)[C@H]1NC(=O)C[C@H]2/C=C/CCSSC[C@@H](NC1=O)C(=O)N[C@H](Cc1cccc3ccccc13)C(=O)NCC(=O)O2; tested on = STK38L (Homo sapiens, UniProt Q9Y2H1); test = enzyme activity, inhibitor; setting = 10 µM; measurement = inhibition; result = -3.5%
